Published values gathered from unrelated publications.
A part holds a random share of what one study measured.

Series 1
Target: Histone acetyltransferase KAT6A, winged helix 1, GST fusion (KAT6A, Homo sapiens, UniProt Q92794, residues 1-85)
Technique: protein binding microarray
Form: double-stranded DNA, one strand shown
Matrix: in vitro
Tested at: not given
Setting: 8-mer, flanks averaged, mean of 2 arrays, mostly near background
Reference: not given
Reading: higher = stronger binding
Residues (chain): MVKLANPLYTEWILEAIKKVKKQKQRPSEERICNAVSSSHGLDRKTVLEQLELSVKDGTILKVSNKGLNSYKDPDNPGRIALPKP
For `ATAGATAC`, the E-score was -0.169.
The E-score of `GAAGCTTC` is reported as -0.202.
`ATGTCTTA` gave an E-score of -0.133.

Series 2
Target: Prothrombin, mature alpha-thrombin (F2, Homo sapiens, UniProt P00734)
Technique: aptamer microarray, sandwich
Form: DNA with 2'F-ANA
Matrix: in vitro
Tested at: 200 nM
Setting: whole 15-mer aptamer, many near background
Added: Cy3 exosite-II aptamer, 400 nM
Reading: higher = stronger binding
Oligonucleotide: GGTTGGTGTGGTTGG
For `2'F-ANA at 1 3 4 6 7 8 9 10 11 12 15`, “mean fluorescence intensity” read 73.6 a.u.
For `2'F-ANA at 2 4 6 10 14`, “mean fluorescence intensity” read 59.3 a.u.
For `2'F-ANA at 3 4 7 11 12 13 14 15`, “mean fluorescence intensity” read 378 a.u.
`2'F-ANA at 1 3 4 5 6 12 14 15` — result for “mean fluorescence intensity”: 47.5 a.u.
`2'F-ANA at 2 3 4 6 8 9 10 12 13 14`: “mean fluorescence intensity” 158 a.u.

Series 3
Target: Sal-like protein 4, full length isoform B (SALL4, Homo sapiens, UniProt Q9UJQ4-2, residues 1-616)
Technique: universal PBM
Form: double-stranded DNA, one strand shown
Matrix: in vitro
Tested at: not given
Setting: 8-mer, flanks averaged, mean of replicates
Reading: higher = stronger binding
Construct (chain): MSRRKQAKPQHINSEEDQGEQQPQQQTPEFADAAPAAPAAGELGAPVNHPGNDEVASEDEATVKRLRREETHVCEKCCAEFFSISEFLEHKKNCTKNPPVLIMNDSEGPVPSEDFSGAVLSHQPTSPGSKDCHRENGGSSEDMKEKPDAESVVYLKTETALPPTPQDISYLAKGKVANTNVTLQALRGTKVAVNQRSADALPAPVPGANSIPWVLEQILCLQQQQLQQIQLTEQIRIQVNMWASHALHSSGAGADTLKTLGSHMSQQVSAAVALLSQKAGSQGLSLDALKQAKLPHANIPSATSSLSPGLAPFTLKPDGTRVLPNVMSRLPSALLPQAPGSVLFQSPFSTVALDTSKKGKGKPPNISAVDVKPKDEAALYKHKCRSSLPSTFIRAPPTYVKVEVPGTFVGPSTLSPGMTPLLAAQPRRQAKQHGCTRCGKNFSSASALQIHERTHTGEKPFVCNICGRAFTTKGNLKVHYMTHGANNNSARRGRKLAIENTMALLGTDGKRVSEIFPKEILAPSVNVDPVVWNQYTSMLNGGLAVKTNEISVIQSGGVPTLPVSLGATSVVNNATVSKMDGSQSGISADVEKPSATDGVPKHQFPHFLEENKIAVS
`CCCCCTTA` has an E-score of -0.101.
The E-score of `GGCACCCC` is reported as -0.278.
`TACTTGGA` gave an E-score of 0.15.

Further values, each from its own experiment
`PhoQ, residues 284 288 289 292 302 303 HSYLQF` gave a fold induction of 0.895 (PhoP, residues 12 14 15 18 19 GMGLL (Escherichia coli, UniProt P23836); Sort-seq, item: YFP reporter; E. coli; PhoQ-PhoP variant library, added: 10 µM Mg2+; reference: high Mg2+ state, higher = stronger signaling).
